# Published values gathered from unrelated publications.
# Parts stem from different laboratories: compare values within a part only. Substitutions count along the parent as printed.

# Sample 1
# Target: CCNE1, cyclin fold, Cln2 fusion (human)
# Technique: yeast growth competition, sequencing
# Medium: yeast
# Notes: weak parent motif
# Baseline: not given
# Reading: higher = stronger binding
# Starting sequence: ORC1 docking peptide (human); PRARKRLELGNLG
Change,normalised enrichment score
PRARRRLELGNLG [K5R],0.634
PWARKRLELGNLG [R2W],0.952
PRARNRLELGNLG [K5N],0.793
PRARKHLELGNLG [R6H],0.769
PRARKRLELGNKG [L12K],0.118
PIARKRLELGNLG [R2I],1.43
PRARKRLELGNLD [G13D],1.01
PRARKRIELGNLG [L7I],0.454
PRARKGLELGNLG [R6G],0.864
PRARERLELGNLG [K5E],-0.066
PRARKYLELGNLG [R6Y],1.02
PRARKRRELGNLG [L7R],0.597
PRARKRLELGSLG [N11S],0.702
PRARKRLEWGNLG [L9W],0.761
PRARKLLELGNLG [R6L],0.879
PRARKRLELGNEG [L12E],0.323
PRARYRLELGNLG [K5Y],0.197
PRAIKRLELGNLG [R4I],0.0277
PRADKRLELGNLG [R4D],0.483
CRARKRLELGNLG [P1C],1.56
PRARWRLELGNLG [K5W],0.973
PRARKRLELSNLG [G10S],-0.0995
PRARKRLDLGNLG [E8D],1.5
PRARKRLELINLG [G10I],0.712
PRARKKLELGNLG [R6K],0.344

# Sample 2
# Target: OGT, full length, His-tagged (human)
# Technique: phage display, sequencing
# Medium: in vitro
# Tested at: 1 µg OGT
# Notes: single substitutions, 15-mer displayed peptide, unchanged parent 5.27
# Baseline: input library
# Reading: higher = stronger binding
# Starting sequence: peptide; GDFPVMFMPKYSIIY
Change,fold enrichment [fold]
I14N,1.5
V5P,4.18
M6K,3.09
M8N,0.765
M8G,1.17
I14M,1.81
F7R,1.53
I13Q,1.17
S12H,0.268
P9S,3.81
M6P,1.58
M6H,3.97
I13E,0.812
K10N,1.17
G1Q,6.01
I14K,3.08

# Sample 3
# Target: Sox, HMG box (Pigoraptor chileana)
# Technique: Spec-seq
# Molecule type: double-stranded DNA, one strand shown
# Medium: in vitro
# Tested at: not given
# Notes: whole probe, mean of replicates
# Baseline: not given
# Reading: lower = stronger binding
# All sequences stand within: GAGTCGTCTCGTCAGCAC … CCGTAGAGCACTCAGGTC
# Construct (chain): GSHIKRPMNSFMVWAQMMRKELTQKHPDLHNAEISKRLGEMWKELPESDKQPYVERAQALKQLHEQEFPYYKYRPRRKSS
Sequence,relative binding energy
CCGAGTT,0.83 ln ratio
CTGAGTT,0.94 ln ratio
CATGCAC,0.463 ln ratio
CATTCCT,0.78 ln ratio
AGGAGTT,0.773 ln ratio
AATGGTT,-2.76 ln ratio
CATTTAC,0.326 ln ratio
TCCGGTT,0.95 ln ratio
AGGCGTT,0.633 ln ratio
CATCGGA,0.639 ln ratio
CATTTTT,0.339 ln ratio
CATAGTG,-0.523 ln ratio
CATCGCT,0.597 ln ratio
AGGGGTT,0.416 ln ratio
CATAGGT,-0.261 ln ratio
CATACCG,0.168 ln ratio
CATGGAG,0.526 ln ratio
CATAATA,-1.5 ln ratio
CCAAGTT,0.368 ln ratio
CGCTGTT,-0.612 ln ratio
TACCGTT,0.195 ln ratio

# Sample 4
# Target: Interferon regulatory factor 3, full length, phosphomimetic (IRF3, Homo sapiens, UniProt Q14653, residues 1-427, S386D/S396D/S398D/S402D/T404D/S405D)
# Technique: protein-binding microarray
# Molecule type: double-stranded DNA, one strand shown
# Medium: in vitro
# Tested at: 2540 nM top
# Notes: 60-bp whole probe
# With: salmon DNA 0.4 mg/ml
# Baseline: random background probes
# Reading: higher = stronger binding
# All sequences stand within: GCCTAGCAC … GTCTTGATTCGCTTGACGCTGCTG
# Construct (chain): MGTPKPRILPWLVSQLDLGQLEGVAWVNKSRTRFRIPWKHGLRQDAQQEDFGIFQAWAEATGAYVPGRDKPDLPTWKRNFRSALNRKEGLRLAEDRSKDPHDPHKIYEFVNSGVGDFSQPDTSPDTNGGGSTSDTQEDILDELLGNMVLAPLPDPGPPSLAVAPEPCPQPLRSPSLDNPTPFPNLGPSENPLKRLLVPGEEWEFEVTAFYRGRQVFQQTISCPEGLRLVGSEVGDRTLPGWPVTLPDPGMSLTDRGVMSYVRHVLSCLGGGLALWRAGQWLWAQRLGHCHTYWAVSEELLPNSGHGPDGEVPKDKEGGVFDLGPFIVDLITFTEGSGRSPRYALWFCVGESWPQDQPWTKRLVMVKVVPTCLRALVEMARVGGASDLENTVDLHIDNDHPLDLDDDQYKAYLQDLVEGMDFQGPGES
Sequence,fitted relative affinity [z-score]
GAAGGTTTCCTTTTCCTGACGTGCTAG,10.5
TCACTTATCCAATCAGAACTGTGCTAG,1.65
GACGGACTGCTTCTCCTGATGTGCTAG,-0.498
GGTCCTTTCTGCCTCAGAGGGTGCTAG,6.15
TTAGGACTGGGGTATCGGTTTGTGCTA,0.983
TCAAGTCCCCTCTTCTGACTGTGCTAG,0.597
TTAGATCTCGGGACTGGATTAGTGCTA,-0.497
TTACCTCTCACGCATCTGAAAGTGCTA,0.64
GACGATTTCGTGTTTCGAGACGTGCTA,1.91
GACGAACTGCGTTTCGAGACGTGCTAG,0.862
TCAGCCCTCACCATCATACTGTGCTAG,-0.296
TCACCTTTCACTTTAACACTGTGCTAG,3.6
TTCTCTTTCACTGCTGCCCTGTGCTAG,2.27
GACGAACTGAGTTTAGAGACGTGCTAG,-0.121
TTAGGTCTCGGTCCCGGTTAGTGCTAG,-0.0499
GACGGGCTGGACACTGGGGACGTGCTA,-0.97
TTAAGTCTCGGTTTCGGTTAGTGCTAG,5.81
TTAGATCTCAGTTTCGATAAGTGCTAG,3.15

# Sample 5
# Target: ABI1, truncated, D143A, DHFR fusion (Arabidopsis thaliana)
# Technique: DHFR PCA, deep sequencing
# Medium: yeast
# Notes: methotrexate growth selection, single substitutions
# With: (+)-ABA 0.032 µM
# Baseline: wild-type fitted maximum
# Reading: higher = stronger binding
# Starting sequence: PYL1, truncated, DHFR fusion (Arabidopsis thaliana); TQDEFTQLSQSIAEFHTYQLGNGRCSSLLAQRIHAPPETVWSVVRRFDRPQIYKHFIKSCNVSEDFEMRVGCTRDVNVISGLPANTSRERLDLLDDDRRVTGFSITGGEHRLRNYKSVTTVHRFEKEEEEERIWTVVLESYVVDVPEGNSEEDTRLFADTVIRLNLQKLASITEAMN
Change,relative binding score [%]
P37Q,6.24
L94V,0.966
P36Y,3.84
T106M,45.5
P50K,-10.9
T73R,3.04
I33Q,1.8
I52K,2.18
H55L,16.2
Q2E,34
Q167N,0.745
S26H,9.08
T1L,25.3
G23E,5.44

# Sample 6
# Target: Histone acetyltransferase KAT6A, winged helix 2, GST fusion (KAT6A, Homo sapiens, UniProt Q92794, residues 85-181)
# Technique: protein binding microarray
# Molecule type: double-stranded DNA, one strand shown
# Medium: in vitro
# Tested at: not given
# Notes: 8-mer, flanks averaged, mean of 2 arrays, mostly near background
# Baseline: not given
# Reading: higher = stronger binding
# Construct (chain): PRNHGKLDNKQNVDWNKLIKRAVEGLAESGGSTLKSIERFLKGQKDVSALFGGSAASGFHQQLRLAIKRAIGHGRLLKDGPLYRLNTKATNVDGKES
Sequence,E-score
ACTCCTCC,0.0258
CGCCTTCA,-0.067
GTCCTCGA,-0.0947
ACTGCCAT,0.124
ATTAAAGA,0.128
GTGCAGCA,-0.0393
ACAGGCGT,-0.128
TACATCGA,-0.133
GGTCGTCA,-0.0726
ACATAAAA,-0.0776
ACTTAATC,-0.11
GTAGAACA,-0.0942
CCTGGTTA,-0.0319
AAAGCTTG,-0.0844
ATGGCCAC,-0.203
AGTCCGGA,0.0279
CCCTGTTC,-0.0381
ATCAAAAA,0.0768
AAAAACGG,0.0261
AACCCACA,0.0863
TAGCAGAA,0.172
GCCGGAGA,0.0413
ACCTAATC,-0.02
CGGTTTGC,0.183
CATACATC,0.00165

# Other studies, line by line
# HNRNPU: HNRNPU (Homo sapiens, UniProt Q00839)
Molecule,target or system,test,test system,setting,scale,measurement,value
"PPP1R12A (Homo sapiens, UniProt O14974)",HNRNPU,cross-linking MS,cell fractions,with: DSSO,,cross-linked residues,S292 to K489
"PhoQ, residues 284 288 289 292 302 303 AEGLLW","PhoP, residues 12 14 15 18 19 AGCRL (Escherichia coli, UniProt P23836)","Sort-seq, measured: YFP reporter",E. coli,"PhoQ-PhoP variant library, with: 10 µM Mg2+","baseline: high Mg2+ state, higher = stronger signaling",fold induction,9.13
"GART (Homo sapiens, UniProt P22102)",HNRNPU,cross-linking MS,cell fractions,with: DSSO,,cross-linked residues,K251 to K331
"RAB8A (Homo sapiens, UniProt P61006)","RIPOR2 (Homo sapiens, UniProt Q9Y4F9)",cross-linking MS,cell fractions,with: DMTMM,,cross-linked residues,K153 to D154

# For quick reference, copied from above (sample 5):
Change,relative binding score [%]
I33Q,1.8
S26H,9.08
Q167N,0.745
T1L,25.3
T73R,3.04
Q2E,34
L94V,0.966
